Published values of several laboratories.
Parts stem from different laboratories: compare values within a part only.

Set 1
Target: Fragile X messenger ribonucleoprotein 1, C-terminal low-complexity region (Fmr1, Mus musculus, UniProt P35922)
Technique: RNA Bind-n-Seq
Form: RNA
Matrix: in vitro
Tested at: 200 nM
Notes: whole 134-nt RNA, ends assumed
Added: 150 mM KCl
Baseline: input library
Reading: higher = stronger binding
`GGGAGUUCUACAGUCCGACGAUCCAAGUCCUGUGCUACACAUCGUAUGUACCGAAUCGGGGCCGGGGCCGGGCCGGGGAAAGUAUUAUGUUACGCCGUUCGGAUCUGCACUUCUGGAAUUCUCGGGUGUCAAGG` gave a log2 enrichment of 0.0399.
`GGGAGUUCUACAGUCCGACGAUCCACAGACAACACGCACCCACACAGACACAGAGGGAAGGGGUUGGGAUGGGGGCAGGGUGCACAGCAGGGCGGGGUAGGACCCCAGCCCCUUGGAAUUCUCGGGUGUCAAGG` gave a log2 enrichment of 1.17.
With `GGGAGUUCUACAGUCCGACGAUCGUCCUGUGCUACACAUCGUAUGUACCGAAUCAAAUUUUUAAACCCCCAAAUUUUUAAAAAAGUAUUAUGUUACGCCGUUCGGAUCUGCACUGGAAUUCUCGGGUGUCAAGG` the log2 enrichment was 0.174.
The log2 enrichment of `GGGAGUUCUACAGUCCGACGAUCUCAAGUCCUGUGCUACACAUCGUAUGUACCGAAUCGGGGUUGGGUUGGGGUUGGGAAAGUAUUAUGUUACGCCGUUCGGAUCUGCACUUCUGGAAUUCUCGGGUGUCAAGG` is reported as 1.36.
`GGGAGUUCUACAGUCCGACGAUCUUUUUCCAGAGCUCACAACGACCUGGGGCUGAGGACAAUGUCCUCAAUGAGAUCGUGAGUAUCUUGCAGCCCACCCAGGUCCCUGAGCAGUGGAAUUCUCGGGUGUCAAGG` has a log2 enrichment of -0.852.
`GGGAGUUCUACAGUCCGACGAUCCAAGUCCUGUGCUACACAUCGUAUGUACCGAAUCGGGAAAAGGGAAAAGGAAAAGGAAAGUAUUAUGUUACGCCGUUCGGAUCUGCACUUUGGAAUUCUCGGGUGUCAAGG` has a log2 enrichment of -0.721.
With `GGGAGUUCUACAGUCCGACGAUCGCAGGUAGUAAAAACAAAUGGAAAUGCUUCGGAUAGUGGCAGGGGUGGGGGUUGCUAAGGAAAGGGUGGGAUGGGAGUGGGUAAAGAGUUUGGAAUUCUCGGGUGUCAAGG` the log2 enrichment was 0.434.
With `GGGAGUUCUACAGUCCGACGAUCUAACUUUAGAGGAGGAUCUGAUGGAUAUGGUAGUGGACGUGGAUUUGGGGAUGGCUAUAAUGGGUAUGGAGGAGGACCUGGAGGUGGCAAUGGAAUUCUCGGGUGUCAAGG` the log2 enrichment was 0.269.
`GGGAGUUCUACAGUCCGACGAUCCAAGUCCUGUGCUACACAUCGUAUGUACCGAAUCGGAAAAGGAAAAGGGGAAAAGGAAAGUAUUAUGUUACGCCGUUCGGAUCUGCACUUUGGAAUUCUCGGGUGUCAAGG` gave a log2 enrichment of -0.531.
`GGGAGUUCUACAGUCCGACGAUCUCCUGUGCUACACAUCGUAUGUACCGAAUCGGUUUUUUGGGUUUUUUGGGGUUUUUUGGAAAGUAUUAUGUUACGCCGUUCGGAUCUGCAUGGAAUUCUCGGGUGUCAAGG` has a log2 enrichment of -0.00311.
The log2 enrichment of `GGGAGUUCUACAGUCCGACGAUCUGGGAGGUGGAUUUUGUUUAUUUUUUUAGCUCAUAUCCAGGGGUGGGAAUUUUUUUUUAAUAUGUGUCAUGAAUAAAGUUGUUUUUGAAAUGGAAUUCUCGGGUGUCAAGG` is reported as 0.301.
`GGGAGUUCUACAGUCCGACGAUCCUGUGCUACACAUCGUAUGUACCGAAUCGGGGUUUUUUUGGGGUUUUUUUGGGGUUUGGGGAAAGUAUUAUGUUACGCCGUUCGGAUCUGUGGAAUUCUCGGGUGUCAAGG` has a log2 enrichment of -0.406.
With `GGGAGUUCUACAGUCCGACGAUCGCAGGAAGUAAAAACAAAUGGAAAUGCUUCGGAUAGUGGCAGGGGUGGGGGUUGCUAAGGAAAGGGUCGGAUGGGAGUGGGUAAAGAGUUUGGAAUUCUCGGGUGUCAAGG` the log2 enrichment was 0.326.
For `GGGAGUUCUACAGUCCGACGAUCAGUCCUGUGCUACACAUCGUAUGUACCGAAUCGGGGAGGGGAAAAAAAGGGGUGGGGAAAGUAUUAUGUUACGCCGUUCGGAUCUGCACUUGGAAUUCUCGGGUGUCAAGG`, the log2 enrichment was 0.878.

Set 2
Target: Prothrombin, mature alpha-thrombin (F2, Homo sapiens, UniProt P00734)
Technique: aptamer microarray, sandwich
Form: DNA with 2'F-ANA
Matrix: in vitro
Tested at: 200 nM
Notes: whole 15-mer aptamer, many near background
Added: Cy3 exosite-II aptamer, 400 nM
Reading: higher = stronger binding
Strand: GGTTGGTGTGGTTGG
`2'F-ANA at 1 2 3 4 5 7 8 9 12`: “mean fluorescence intensity” 143 a.u.
`2'F-ANA at 1 2 3 4 6 10 15`: “mean fluorescence intensity” 75.3 a.u.
`2'F-ANA at 2 3 6 7 9 11 12`: “mean fluorescence intensity” 759 a.u.
`2'F-ANA at 1 2 3 4 10 12 14`: “mean fluorescence intensity” 50 a.u.
Under “mean fluorescence intensity”, `2'F-ANA at 1 5 10 11 13 14 15` is recorded as 45.9 a.u.
Under “mean fluorescence intensity”, `2'F-ANA at 1 6 7 9 13` is recorded as 105 a.u.
For `2'F-ANA at 1 2 4 7 8 10 11 12 13 14 15`, “mean fluorescence intensity” read 67.4 a.u.
`2'F-ANA at 1 2 4 5 7 8 9 11 12 13`: “mean fluorescence intensity” 66.3 a.u.
Under “mean fluorescence intensity”, `2'F-ANA at 1 2 3 4 5 6 8 10 13 15` is recorded as 48.1 a.u.
For `2'F-ANA at 1 7 13 14 15`, “mean fluorescence intensity” read 56.8 a.u.
Under “mean fluorescence intensity”, `2'F-ANA at 2 4 5 9 12 14 15` is recorded as 49.1 a.u.
`2'F-ANA at 1 2 3 5 6 8 10 11 12 14 15` — result for “mean fluorescence intensity”: 58.6 a.u.
`2'F-ANA at 1 7 9 11 12`: “mean fluorescence intensity” 315 a.u.
`2'F-ANA at 1 4 5 7 9 10 13 15` — result for “mean fluorescence intensity”: 47.2 a.u.
For `2'F-ANA at 4 6 7 9 10 11 12 13 15`, “mean fluorescence intensity” read 142 a.u.
`2'F-ANA at 4 5 10 11 12 13` — result for “mean fluorescence intensity”: 48.9 a.u.
`2'F-ANA at 3 6 7 8 9 10 12 13` — result for “mean fluorescence intensity”: 540 a.u.
Under “mean fluorescence intensity”, `2'F-ANA at 1 4 6 7 11 12` is recorded as 196 a.u.
`2'F-ANA at 4 6 7 11 12` — result for “mean fluorescence intensity”: 383 a.u.

Set 3
Target: Histone acetyltransferase KAT6A, both winged helices, GST fusion (KAT6A, Homo sapiens, UniProt Q92794, residues 1-181)
Technique: protein binding microarray
Form: double-stranded DNA, one strand shown
Matrix: in vitro
Tested at: not given
Notes: 8-mer, flanks averaged, mean of 2 arrays, mostly near background
Baseline: not given
Reading: higher = stronger binding
Target sequence (chain): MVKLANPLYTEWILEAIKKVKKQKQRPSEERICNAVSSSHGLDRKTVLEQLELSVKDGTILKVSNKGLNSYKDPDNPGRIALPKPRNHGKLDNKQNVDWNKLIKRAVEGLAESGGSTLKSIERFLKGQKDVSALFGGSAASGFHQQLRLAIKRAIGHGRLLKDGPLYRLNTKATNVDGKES
`CCCAAAAC` has an E-score of -0.128.
For `ACTGGGTA`, the E-score was -0.181.
`AACTCCAA` has an E-score of -0.151.
With `GACTGGCC` the E-score was -0.0744.
`CGCGTAAC` has an E-score of 0.308.
`CTAGCTGC` has an E-score of -0.0775.
With `AAAGGCCC` the E-score was 0.112.
`GATTGATA` gave an E-score of -0.0297.
`GGCCCTCA` has an E-score of -0.155.
For `AGCAGCGA`, the E-score was -0.0508.
For `CTATAGAC`, the E-score was -0.0595.
With `ATAACTCA` the E-score was -0.11.
`GAACTGCA` has an E-score of -0.0631.
`GCAACGGC` has an E-score of 0.271.
`TAAGCTTA` gave an E-score of -0.0775.
`AGTAGGCA` gave an E-score of -0.256.
`ACCAAGTC` has an E-score of -0.0932.
For `CGACATCC`, the E-score was 0.0915.

Other studies, line by line
`PhoQ, residues 284 288 289 292 302 303 SSTMSV` gave a fold induction of 0.719 (PhoP, residues 12 14 15 18 19 AYFRS (Escherichia coli, UniProt P23836); Sort-seq, item: YFP reporter; E. coli; PhoQ-PhoP variant library, added: 10 µM Mg2+; baseline: high Mg2+ state, higher = stronger signaling).

Excerpt of the above (set 1):
`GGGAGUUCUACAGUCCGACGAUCCACAGACAACACGCACCCACACAGACACAGAGGGAAGGGGUUGGGAUGGGGGCAGGGUGCACAGCAGGGCGGGGUAGGACCCCAGCCCCUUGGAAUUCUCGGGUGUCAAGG` gave a log2 enrichment of 1.17.
With `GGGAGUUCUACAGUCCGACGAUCGUCCUGUGCUACACAUCGUAUGUACCGAAUCAAAUUUUUAAACCCCCAAAUUUUUAAAAAAGUAUUAUGUUACGCCGUUCGGAUCUGCACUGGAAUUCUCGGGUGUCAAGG` the log2 enrichment was 0.174.
The log2 enrichment of `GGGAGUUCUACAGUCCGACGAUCUCAAGUCCUGUGCUACACAUCGUAUGUACCGAAUCGGGGUUGGGUUGGGGUUGGGAAAGUAUUAUGUUACGCCGUUCGGAUCUGCACUUCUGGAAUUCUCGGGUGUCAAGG` is reported as 1.36.
`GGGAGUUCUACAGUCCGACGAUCUUUUUCCAGAGCUCACAACGACCUGGGGCUGAGGACAAUGUCCUCAAUGAGAUCGUGAGUAUCUUGCAGCCCACCCAGGUCCCUGAGCAGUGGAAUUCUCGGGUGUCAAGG` has a log2 enrichment of -0.852.
`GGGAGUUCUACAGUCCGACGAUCCAAGUCCUGUGCUACACAUCGUAUGUACCGAAUCGGGAAAAGGGAAAAGGAAAAGGAAAGUAUUAUGUUACGCCGUUCGGAUCUGCACUUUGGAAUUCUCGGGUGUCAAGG` has a log2 enrichment of -0.721.
With `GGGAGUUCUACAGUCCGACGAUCGCAGGUAGUAAAAACAAAUGGAAAUGCUUCGGAUAGUGGCAGGGGUGGGGGUUGCUAAGGAAAGGGUGGGAUGGGAGUGGGUAAAGAGUUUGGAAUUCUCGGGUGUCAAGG` the log2 enrichment was 0.434.
With `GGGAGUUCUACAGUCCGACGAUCUAACUUUAGAGGAGGAUCUGAUGGAUAUGGUAGUGGACGUGGAUUUGGGGAUGGCUAUAAUGGGUAUGGAGGAGGACCUGGAGGUGGCAAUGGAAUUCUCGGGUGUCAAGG` the log2 enrichment was 0.269.
`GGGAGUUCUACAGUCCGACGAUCCAAGUCCUGUGCUACACAUCGUAUGUACCGAAUCGGAAAAGGAAAAGGGGAAAAGGAAAGUAUUAUGUUACGCCGUUCGGAUCUGCACUUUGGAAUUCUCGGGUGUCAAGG` gave a log2 enrichment of -0.531.
